Experimental data pooled from the literature.
Numbered parts are unrelated; each lists some results of a single study. Substitutions count along the parent as printed.
Chain of UniProt P07949 (whole entry, unmodified, looked up): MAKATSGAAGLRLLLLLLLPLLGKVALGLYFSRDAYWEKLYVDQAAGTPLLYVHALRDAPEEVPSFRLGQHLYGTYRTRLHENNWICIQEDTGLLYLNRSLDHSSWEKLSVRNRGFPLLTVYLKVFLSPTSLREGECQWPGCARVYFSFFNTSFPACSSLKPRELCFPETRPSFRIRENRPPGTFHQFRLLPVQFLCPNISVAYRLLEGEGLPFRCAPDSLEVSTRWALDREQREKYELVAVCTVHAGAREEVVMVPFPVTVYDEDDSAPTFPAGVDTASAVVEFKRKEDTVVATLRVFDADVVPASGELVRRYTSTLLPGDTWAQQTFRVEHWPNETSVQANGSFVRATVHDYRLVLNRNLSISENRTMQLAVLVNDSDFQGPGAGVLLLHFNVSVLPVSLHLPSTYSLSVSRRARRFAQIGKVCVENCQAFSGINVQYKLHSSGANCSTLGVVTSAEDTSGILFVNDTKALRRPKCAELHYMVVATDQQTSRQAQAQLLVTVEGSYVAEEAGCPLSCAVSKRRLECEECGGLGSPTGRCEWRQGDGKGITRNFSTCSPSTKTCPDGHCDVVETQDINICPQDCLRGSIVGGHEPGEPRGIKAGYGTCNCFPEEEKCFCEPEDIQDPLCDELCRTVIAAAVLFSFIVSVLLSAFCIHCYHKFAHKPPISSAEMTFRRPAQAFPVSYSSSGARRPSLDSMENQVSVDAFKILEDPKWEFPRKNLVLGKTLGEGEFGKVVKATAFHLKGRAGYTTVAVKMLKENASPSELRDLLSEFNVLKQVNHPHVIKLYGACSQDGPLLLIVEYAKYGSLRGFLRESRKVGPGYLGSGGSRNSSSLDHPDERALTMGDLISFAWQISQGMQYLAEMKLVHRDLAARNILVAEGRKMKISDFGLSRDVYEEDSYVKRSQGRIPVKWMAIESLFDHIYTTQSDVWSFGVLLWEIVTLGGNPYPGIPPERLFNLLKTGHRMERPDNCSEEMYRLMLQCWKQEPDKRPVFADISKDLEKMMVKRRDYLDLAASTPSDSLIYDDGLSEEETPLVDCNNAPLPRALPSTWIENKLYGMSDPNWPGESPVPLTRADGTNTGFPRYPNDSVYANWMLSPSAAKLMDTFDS
Chain of UniProt P51812 (whole entry, looked up): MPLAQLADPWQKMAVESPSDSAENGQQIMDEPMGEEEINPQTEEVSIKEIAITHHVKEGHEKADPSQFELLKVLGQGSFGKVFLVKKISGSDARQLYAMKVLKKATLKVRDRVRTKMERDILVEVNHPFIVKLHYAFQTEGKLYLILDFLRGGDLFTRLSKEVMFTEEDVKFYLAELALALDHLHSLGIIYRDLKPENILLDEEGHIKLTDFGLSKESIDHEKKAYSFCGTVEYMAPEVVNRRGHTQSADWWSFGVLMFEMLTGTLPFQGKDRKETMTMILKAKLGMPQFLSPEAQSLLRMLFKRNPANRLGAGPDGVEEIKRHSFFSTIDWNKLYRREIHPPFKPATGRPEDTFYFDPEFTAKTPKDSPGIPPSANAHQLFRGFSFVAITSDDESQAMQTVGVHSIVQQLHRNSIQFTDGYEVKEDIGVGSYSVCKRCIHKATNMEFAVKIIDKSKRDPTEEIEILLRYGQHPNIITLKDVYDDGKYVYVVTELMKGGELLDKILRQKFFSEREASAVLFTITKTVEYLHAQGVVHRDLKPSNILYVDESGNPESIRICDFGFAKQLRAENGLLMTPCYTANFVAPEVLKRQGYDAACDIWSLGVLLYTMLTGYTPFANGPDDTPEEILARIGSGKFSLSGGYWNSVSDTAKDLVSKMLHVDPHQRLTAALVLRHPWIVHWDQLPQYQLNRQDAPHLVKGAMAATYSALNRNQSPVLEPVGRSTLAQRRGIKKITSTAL
Chain of UniProt P17948 (whole entry, looked up): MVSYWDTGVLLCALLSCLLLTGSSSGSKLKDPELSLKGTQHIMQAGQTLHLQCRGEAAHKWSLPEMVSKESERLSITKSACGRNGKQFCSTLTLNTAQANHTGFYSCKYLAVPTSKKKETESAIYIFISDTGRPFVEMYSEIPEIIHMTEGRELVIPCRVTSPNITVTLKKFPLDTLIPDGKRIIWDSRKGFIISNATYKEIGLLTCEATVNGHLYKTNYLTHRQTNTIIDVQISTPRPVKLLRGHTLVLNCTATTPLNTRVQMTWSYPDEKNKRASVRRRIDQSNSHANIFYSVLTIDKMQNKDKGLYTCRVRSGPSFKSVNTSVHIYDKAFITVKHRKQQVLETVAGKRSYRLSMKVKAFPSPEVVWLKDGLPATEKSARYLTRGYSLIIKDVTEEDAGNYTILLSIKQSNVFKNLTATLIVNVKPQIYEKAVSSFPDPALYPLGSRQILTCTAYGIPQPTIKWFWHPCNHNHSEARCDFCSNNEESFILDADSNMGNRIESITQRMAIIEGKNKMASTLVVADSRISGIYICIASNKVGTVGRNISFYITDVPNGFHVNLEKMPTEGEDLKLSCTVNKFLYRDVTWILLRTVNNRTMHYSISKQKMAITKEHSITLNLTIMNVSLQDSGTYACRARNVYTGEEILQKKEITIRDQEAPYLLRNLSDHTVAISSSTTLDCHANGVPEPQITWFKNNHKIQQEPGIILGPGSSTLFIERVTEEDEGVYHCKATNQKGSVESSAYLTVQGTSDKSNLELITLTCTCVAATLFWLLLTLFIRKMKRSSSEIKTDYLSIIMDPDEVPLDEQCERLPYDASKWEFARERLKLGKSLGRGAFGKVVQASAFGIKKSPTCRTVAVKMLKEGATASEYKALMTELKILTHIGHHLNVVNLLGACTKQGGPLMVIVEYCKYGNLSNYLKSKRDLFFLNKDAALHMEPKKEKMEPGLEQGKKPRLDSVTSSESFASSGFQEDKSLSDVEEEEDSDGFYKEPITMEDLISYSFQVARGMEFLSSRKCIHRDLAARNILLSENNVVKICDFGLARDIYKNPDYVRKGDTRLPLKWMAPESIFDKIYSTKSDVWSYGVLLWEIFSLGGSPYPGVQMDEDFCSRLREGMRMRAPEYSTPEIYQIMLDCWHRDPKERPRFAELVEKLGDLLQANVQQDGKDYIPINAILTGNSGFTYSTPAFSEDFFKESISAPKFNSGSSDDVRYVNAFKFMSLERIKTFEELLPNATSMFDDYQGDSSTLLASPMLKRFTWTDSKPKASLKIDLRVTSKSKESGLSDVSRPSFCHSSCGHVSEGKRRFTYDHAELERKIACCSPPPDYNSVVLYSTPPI
Chain of UniProt Q14164 (whole entry, looked up): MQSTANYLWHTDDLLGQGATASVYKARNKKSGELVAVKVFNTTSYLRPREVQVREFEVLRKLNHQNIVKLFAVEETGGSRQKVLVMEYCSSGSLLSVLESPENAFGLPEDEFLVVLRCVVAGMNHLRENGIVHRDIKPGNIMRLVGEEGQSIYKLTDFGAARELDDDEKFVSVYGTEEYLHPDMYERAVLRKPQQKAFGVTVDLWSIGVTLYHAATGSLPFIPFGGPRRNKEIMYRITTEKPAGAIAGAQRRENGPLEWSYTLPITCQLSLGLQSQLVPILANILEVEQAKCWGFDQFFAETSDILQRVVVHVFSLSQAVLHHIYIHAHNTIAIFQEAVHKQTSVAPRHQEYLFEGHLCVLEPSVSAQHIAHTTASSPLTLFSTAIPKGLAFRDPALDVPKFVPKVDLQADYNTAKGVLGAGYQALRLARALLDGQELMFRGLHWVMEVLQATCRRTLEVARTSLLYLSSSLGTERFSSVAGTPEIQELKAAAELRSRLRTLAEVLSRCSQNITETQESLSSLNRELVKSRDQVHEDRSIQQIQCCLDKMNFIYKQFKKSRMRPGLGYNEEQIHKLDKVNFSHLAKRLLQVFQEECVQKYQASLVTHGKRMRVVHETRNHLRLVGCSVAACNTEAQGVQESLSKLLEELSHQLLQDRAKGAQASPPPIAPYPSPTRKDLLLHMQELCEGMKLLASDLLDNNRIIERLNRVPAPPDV
Chain of UniProt P78356 (whole entry, looked up): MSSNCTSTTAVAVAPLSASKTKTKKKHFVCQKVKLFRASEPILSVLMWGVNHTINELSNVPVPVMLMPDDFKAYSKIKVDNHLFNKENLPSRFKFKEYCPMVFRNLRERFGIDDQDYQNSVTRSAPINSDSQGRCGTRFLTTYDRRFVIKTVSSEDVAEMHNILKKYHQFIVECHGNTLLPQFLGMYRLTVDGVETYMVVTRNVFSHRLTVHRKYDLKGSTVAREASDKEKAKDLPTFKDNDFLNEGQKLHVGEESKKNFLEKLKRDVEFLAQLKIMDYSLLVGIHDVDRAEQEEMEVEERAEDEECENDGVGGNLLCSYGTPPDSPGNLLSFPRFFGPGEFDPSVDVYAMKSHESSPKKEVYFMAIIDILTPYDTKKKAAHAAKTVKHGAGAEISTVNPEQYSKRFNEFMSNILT

Sample 1
Target: Maternal embryonic leucine zipper kinase (MELK, Homo sapiens, UniProt Q14680)
Chain of UniProt Q14680 (whole entry, looked up): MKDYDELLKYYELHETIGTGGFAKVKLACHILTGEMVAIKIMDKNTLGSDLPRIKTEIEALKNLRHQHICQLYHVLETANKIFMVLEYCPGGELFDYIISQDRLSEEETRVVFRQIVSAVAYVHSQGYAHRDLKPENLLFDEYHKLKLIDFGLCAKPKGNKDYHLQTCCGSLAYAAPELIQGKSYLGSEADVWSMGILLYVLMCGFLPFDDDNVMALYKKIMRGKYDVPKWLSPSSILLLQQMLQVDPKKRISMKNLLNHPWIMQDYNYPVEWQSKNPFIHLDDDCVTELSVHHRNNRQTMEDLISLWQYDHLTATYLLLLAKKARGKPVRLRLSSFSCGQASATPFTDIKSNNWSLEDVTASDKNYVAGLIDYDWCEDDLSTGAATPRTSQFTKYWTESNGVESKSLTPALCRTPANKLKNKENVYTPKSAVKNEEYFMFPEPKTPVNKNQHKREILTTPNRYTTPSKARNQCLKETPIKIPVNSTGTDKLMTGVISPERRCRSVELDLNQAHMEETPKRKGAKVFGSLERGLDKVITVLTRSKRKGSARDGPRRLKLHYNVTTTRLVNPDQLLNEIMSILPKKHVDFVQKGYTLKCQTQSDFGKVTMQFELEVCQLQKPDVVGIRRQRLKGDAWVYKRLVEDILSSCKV
Read-out: enzyme activity
Mode: inhibitor
Tested at: 0.5 µM
Baseline: control
Compound	remaining activity [%]
COc1ccc(S(=O)(=O)N(CCO)c2ccccc2CN(C)CC=Cc2ccc(Cl)cc2)cc1	99.4
Nc1nccc(-c2c(-c3ccc(F)cc3)ncn2C2CCNCC2)n1	100
CC[n+]1c(/C=C/N(C)c2ccccc2)n(-c2ccccc2)c2ccc(-c3nc4ccccc4s3)cc21	93.4
NC(=O)c1ccc(N(C(N)=O)c2c(F)cccc2F)nc1-c1ccc(F)cc1F	87.1
Nc1nc(Nc2ccc(S(N)(=O)=O)cc2)nn1C(=O)c1c(F)cccc1F	87.2
Cc1cncc2cccc(S(=O)(=O)N3CCCN(C(=O)CN)C[C@@H]3C)c12	83
Cc1ccc(NC2=CC(=O)c3sc(C)nc3C2=O)cc1	93.2
CCc1[nH]c(-c2ccc(OC)cc2)nc1-c1ccncc1	110
CCCC(=O)Oc1ccc2[nH]c(C(=O)c3cc4ccccc4[nH]3)cc2c1	96.4
CC(=O)c1ccc(N2CCOCC2)cc1O	102
Nc1ncnc2c1cnn2-c1ccccc1	92.6

Sample 2
Target: CCNB2, cyclin fold, Cln2 fusion (human)
Technique: yeast growth competition, sequencing
Medium: yeast
Notes: weak parent motif
Baseline: not given
Reading: higher = stronger binding
Starting sequence: SAMHD1 docking peptide (human); ASKSRVQLFKDDP
Variant	normalised enrichment score
ASKSRVNLFKDDP [Q7N]	0.35
ASKMRVQLFKDDP [S4M]	0.999
ASKSRVQFFKDDP [L8F]	0.089
ASKSRVQHFKDDP [L8H]	-0.273
ASKSRVQLFIDDP [K10I]	0.255
ASKSRVQLFKCDP [D11C]	0.306
ASKSQVQLFKDDP [R5Q]	-0.276
ASKSDVQLFKDDP [R5D]	-0.503

Sample 3
Variant: T135N
Target: ABI1, truncated, D143A, DHFR fusion (Arabidopsis thaliana)
Technique: DHFR PCA, deep sequencing
Medium: yeast
Notes: methotrexate growth selection, single substitutions
Baseline: wild-type fitted maximum
Reading: higher = stronger binding
Starting sequence: PYL1, truncated, DHFR fusion (Arabidopsis thaliana); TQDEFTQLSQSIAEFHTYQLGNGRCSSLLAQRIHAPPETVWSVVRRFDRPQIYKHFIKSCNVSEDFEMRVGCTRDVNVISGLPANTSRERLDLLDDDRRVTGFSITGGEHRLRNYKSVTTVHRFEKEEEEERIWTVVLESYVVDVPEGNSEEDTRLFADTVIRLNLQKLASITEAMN
added	relative binding score
(+)-ABA 4.8 µM	-26%
(+)-ABA 0.11 µM	-2.39%
(+)-ABA 0.39 µM	-25.9%
(+)-ABA 0 µM	-6.62%
(+)-ABA 200 µM	7.65%
(+)-ABA 58 µM	-9.15%

Sample 4
Compound: CC(=O)N1CCC(c2ccc(C(=O)NC3=NCCN3)cc2C(F)(F)F)CC1
Read-out: cell-free assay
Technique: competition with immobilised ligand
Tested at: 1 µM
target	remaining binding [%]
Ribosomal protein S6 kinase alpha-3, C-terminal kinase domain (RPS6KA3, Homo sapiens, UniProt P51812)	99
RET (Homo sapiens, UniProt P07949, M918T)	90
PIP4K2B (Homo sapiens, UniProt P78356)	75
EPHB2 (Homo sapiens, UniProt P29323)	82
IKBKE (Homo sapiens, UniProt Q14164)	71
FLT1 (Homo sapiens, UniProt P17948)	100
FLT3 (Homo sapiens, UniProt P36888, D835V)	97
